Results pooled from the literature.
Compare with care: the assays were run in different laboratories. ≈ marks a conversion by molar mass, not a printed value.
Sequence of UniProt Q08499 (whole entry, looked up): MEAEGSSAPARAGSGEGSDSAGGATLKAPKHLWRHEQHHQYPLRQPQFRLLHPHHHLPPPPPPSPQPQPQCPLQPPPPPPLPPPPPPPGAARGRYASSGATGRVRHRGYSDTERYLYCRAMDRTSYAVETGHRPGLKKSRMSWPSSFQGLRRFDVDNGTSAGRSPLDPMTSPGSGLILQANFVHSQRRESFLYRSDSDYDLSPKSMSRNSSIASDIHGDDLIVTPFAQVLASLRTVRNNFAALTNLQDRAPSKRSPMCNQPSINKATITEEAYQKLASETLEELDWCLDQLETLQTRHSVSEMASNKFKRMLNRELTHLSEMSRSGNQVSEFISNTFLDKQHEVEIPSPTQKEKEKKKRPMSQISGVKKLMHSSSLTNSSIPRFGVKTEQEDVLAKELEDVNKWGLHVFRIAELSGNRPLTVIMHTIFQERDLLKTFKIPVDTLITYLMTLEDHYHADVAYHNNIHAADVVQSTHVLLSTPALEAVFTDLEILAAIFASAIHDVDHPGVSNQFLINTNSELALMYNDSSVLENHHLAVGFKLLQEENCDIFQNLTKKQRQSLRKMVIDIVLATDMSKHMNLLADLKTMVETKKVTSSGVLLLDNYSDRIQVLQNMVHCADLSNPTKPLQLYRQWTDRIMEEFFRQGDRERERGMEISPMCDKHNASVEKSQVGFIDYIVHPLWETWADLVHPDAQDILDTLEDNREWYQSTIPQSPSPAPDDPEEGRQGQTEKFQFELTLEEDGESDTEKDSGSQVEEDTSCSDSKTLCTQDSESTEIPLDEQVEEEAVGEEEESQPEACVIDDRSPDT
Sequence of UniProt P23975 (whole entry, looked up): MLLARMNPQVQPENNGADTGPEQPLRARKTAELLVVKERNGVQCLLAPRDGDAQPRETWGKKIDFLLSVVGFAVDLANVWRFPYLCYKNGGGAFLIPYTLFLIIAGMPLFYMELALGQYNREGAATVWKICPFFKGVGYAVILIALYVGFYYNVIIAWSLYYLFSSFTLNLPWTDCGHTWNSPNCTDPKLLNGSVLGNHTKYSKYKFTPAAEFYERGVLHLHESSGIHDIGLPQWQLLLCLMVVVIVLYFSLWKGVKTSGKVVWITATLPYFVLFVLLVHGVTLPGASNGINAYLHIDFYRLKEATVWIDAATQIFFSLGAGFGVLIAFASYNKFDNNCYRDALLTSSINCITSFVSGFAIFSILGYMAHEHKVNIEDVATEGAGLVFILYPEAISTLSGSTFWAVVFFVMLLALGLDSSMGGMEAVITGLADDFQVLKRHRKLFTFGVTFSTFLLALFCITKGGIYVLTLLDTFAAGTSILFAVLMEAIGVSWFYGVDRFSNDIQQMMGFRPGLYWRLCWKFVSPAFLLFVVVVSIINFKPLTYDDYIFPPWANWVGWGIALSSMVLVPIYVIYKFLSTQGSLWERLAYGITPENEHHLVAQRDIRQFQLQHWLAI
Sequence of UniProt Q9UQ88 (whole entry, looked up): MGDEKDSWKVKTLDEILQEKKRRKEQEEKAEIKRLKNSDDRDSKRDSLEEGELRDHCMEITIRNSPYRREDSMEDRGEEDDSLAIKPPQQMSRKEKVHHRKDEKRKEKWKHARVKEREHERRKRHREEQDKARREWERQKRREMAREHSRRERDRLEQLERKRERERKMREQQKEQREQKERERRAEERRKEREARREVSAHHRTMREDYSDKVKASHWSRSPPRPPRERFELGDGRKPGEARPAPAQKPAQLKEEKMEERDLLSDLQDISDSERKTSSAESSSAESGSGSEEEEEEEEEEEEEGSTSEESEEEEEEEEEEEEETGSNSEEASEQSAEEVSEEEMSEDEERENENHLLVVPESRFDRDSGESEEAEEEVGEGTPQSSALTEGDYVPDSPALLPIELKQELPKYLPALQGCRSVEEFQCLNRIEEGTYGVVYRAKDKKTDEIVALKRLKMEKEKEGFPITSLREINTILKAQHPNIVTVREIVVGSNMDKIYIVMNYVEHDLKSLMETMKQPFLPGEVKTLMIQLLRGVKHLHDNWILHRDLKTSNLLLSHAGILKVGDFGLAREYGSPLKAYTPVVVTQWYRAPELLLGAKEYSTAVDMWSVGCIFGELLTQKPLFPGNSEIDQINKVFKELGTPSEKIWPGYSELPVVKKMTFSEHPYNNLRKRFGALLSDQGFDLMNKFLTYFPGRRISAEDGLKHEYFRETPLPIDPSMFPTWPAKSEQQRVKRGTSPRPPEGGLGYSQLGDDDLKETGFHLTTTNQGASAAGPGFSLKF
Sequence of UniProt Q9UPZ9 (whole entry, looked up): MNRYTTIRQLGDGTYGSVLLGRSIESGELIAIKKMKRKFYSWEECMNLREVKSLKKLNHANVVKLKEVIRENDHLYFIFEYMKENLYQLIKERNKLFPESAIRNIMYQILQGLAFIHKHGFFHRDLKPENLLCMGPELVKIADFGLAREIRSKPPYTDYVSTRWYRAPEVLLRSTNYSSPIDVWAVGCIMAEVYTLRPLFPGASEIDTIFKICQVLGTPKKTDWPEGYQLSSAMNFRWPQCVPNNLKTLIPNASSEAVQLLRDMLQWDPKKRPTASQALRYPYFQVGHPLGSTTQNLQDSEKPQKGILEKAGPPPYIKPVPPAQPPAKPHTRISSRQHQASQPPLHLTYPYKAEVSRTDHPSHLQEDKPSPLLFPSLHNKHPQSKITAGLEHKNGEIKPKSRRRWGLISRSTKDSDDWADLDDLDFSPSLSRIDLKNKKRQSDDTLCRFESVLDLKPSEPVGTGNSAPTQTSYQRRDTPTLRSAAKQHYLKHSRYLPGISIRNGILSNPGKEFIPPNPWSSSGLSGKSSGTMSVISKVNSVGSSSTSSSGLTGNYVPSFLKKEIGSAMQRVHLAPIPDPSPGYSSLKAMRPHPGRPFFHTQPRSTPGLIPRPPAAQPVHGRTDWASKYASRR

SMILES	tested on	test	test system	conditions	measurement	value
N=C(N)c1ccc(OCCCCCOc2ccc(C(=N)N)cc2)cc1	Leishmania donovani	parasite growth	THP-1	intracellular, amastigote	IC50	3 µg/mL
CCOC(=O)COc1ccc2ccc3oc([N+](=O)[O-])cc3c2c1	Mycolicibacterium smegmatis	microbial growth, resazurin	MC^2155		MIC90	0.25 µg/mL (≈ 0.793 µM)
O=c1ccc2nc3ccc(OCc4ccc([N+](=O)[O-])o4)cc3oc-2c1	Serratia marcescens	microbial growth		24 h	MIC	> 32 µg/mL
O=C(NNc1cc(F)ccc1F)c1nnc(C23CC4CC(CC(C4)C2)C3)o1	Sclerotinia sclerotiorum	microbial growth		50 µg/mL	inhibition	76.5%
COc1ccc(Nc2nn3c(-c4ccccc4)ccnc3c2C(=O)Nc2ccccc2)cc1	A549	cell growth or viability, MTT		25 µg/mL, 48 h, serum-free	viability	62.2%
CC(C)(C)C(O)(CCc1ccc(Cl)cc1)Cn1cncn1 (stereo not shown)	Sclerotinia sclerotiorum	microbial growth		200 µg/mL	inhibition	100%
CCOC(=O)c1nnn(-c2cccc(NC(=O)Nc3ccc(Cl)c(Cl)c3)c2)c1C	Mycobacteroides abscessus	microbial growth, broth dilution	ATCC19977	48 h	MIC	> 64 µg/mL
C#Cc1ccc(C(=O)NN=Cc2c(O)cccc2C#C)cc1	Aspergillus fumigatus	microbial growth		48 h, pH 6.5	MIC80	> 32 µg/mL
Nc1nc(N)nc(Nc2ccc([As]3SCC(CO)S3)cc2)n1 (stereo not shown)	Trypanosoma brucei	parasite growth, resazurin	RHODESIENSE STIB900		IC50	30 nM
Oc1c(Br)cc(Br)cc1-c1[nH]c(Br)c(Br)c1Br	Klebsiella aerogenes	microbial growth	ATCC35029		MIC	16 µM
C[C@@H](O)[C@@H]1NC(=O)[C@H](Cc2ccccc2)NC(=O)[C@@H](Cc2ccccc2)NC(=O)[C@H]([C@@H](C)O)NC(=O)[C@@H](CCCN)NC(=O)[C@H](CCCNC(=N)N)NC(=O)[C@@H](CCCN)NC1=O	Balamuthia mandrillaris	parasite growth, ATP luminescence			IC50	> 16 µg/mL
COc1ccc(Nc2nn3c(-c4ccccc4)ccnc3c2C(=O)Nc2ccc(Cl)cc2)cc1	A549	cell growth or viability, MTT		6.25 µg/mL, 48 h, serum-free	viability	92.2%
CC(=O)N1CCN(c2ccc(OCC3COC(Cn4ccnc4)(c4ccc(Cl)cc4Cl)O3)cc2)CC1 (stereo not shown)	Candida albicans	microbial killing, broth dilution	SP3902	48 h	MFC	> 64 µM
C#Cc1ccc(C=NNC(=O)c2ccc(COC)cc2)c(O)c1	Aspergillus fumigatus	microbial growth		48 h, pH 6.5	MIC80	1 µg/mL (≈ 3.24 µM)
COC(=O)c1cc(-c2cccc(NC(=S)Nc3ccc([N+](=O)[O-])cc3)c2)on1	Mycobacteroides abscessus	microbial growth, broth dilution	ATCC19977	48 h	MIC	> 64 µg/mL
Cc1ccc(NNC(=O)c2nnc(CC34CC5CC(CC(C5)C3)C4)o2)cc1	Fusarium oxysporum	microbial growth		50 µg/mL	inhibition	76.9%
C#Cc1cccc(O)c1C=NNC(=O)c1ccc(Br)cc1Br	Aspergillus fumigatus	microbial growth		48 h, pH 6.5	MIC80	8 µg/mL (≈ 19 µM)
N.N.[Cl][Pt][Cl]	L-82	cell growth or viability, ATP luminescence		10 µM, 72 h	inhibition	100%
C#Cc1ccc(O)c(C=NNC(=O)c2ccc(Br)cc2)c1	Aspergillus fumigatus	microbial growth		48 h, pH 6.5	MIC80	2 µg/mL (≈ 5.83 µM)
O=C(NNc1ccccc1)c1nnc(CC23CC4CC(CC(C4)C2)C3)o1	Fusarium oxysporum	microbial growth		50 µg/mL	inhibition	69.7%
COC(=O)c1cc(-c2cccc(NC(=O)Nc3ccc(Cl)c(Cl)c3)c2)on1	Mycobacteroides abscessus	microbial growth, broth dilution	ATCC19977	48 h	MIC	> 64 µg/mL
Nc1ncc(-c2nc(N3CCOCC3)nc(N3CCOCC3)n2)c(C(F)F)n1	Sodium-dependent noradrenaline transporter (SLC6A2, Homo sapiens, UniProt P23975)	cell-free assay, radioligand		10 µM	remaining signal	98.5%
COC(=O)c1cc(-c2cccc(NC(=O)Nc3ccc(F)cc3F)c2)on1	Acinetobacter baumannii	microbial growth, broth dilution	BAA1605		MIC	> 64 µg/mL
Nc1ncnc2c([C@@H]3N[C@H](CO)[C@@H](O)[C@H]3O)c[nH]c12	human respiratory syncytial virus	viral replication, inhibitor	MA104	8.9 µM	inhibition	36.9%
O=c1cc(CSc2ccc(N=Cc3ccc(C(F)(F)F)cc3)cc2)occ1O		ABTS scavenging, absorbance			IC50	20400 nM
Cc1nn(C)cc1-c1nc2c(N3CCN(Cc4ccc(Cl)cc4)CC3)c(Cl)cnc2[nH]1	Serine/threonine-protein kinase ICK (CILK1, Homo sapiens, UniProt Q9UPZ9)	binding, competition with immobilised ligand		1 µM	remaining binding	92%

SMILES	tested on	test	test system	conditions	measurement	value
[2H]c1c([2H])c([C@]2([2H])CCCN2C(=O)C(C)(C)Oc2ccc3cn[nH]c3c2)c([2H])c([2H])c1C([2H])([2H])[2H]	Dual specificity tyrosine-phosphorylation-regulated kinase 1B (DYRK1B, Homo sapiens, UniProt Q9Y463)	binding, competition with immobilised ligand		1 µM	remaining binding	65%
Oc1c(Cl)cc(Cl)cc1-c1[nH]c(Cl)c(Cl)c1Cl	Shigella sonnei	microbial growth	ATCC25931		MIC	8 µM
CC(C)[C@@H]1NC(=O)[C@@H](CCCCN)NC(=O)[C@H](CCCN)NC(=O)[C@@H](CC(=O)O)NC(=O)[C@H](C)NC(=O)[C@H](Cc2c[nH]c3ccccc23)NC(=O)[C@@H](Cc2c[nH]c3ccccc23)NC1=O	Balamuthia mandrillaris	parasite growth, ATP luminescence			IC90	> 16 µg/mL
CC(C)CC(=O)OC[C@H]1O[C@@](C#N)(c2ccc3c(N)ncnn23)[C@H](O)[C@@H]1O	3',5'-cyclic-AMP phosphodiesterase 4D (PDE4D, Homo sapiens, UniProt Q08499)	enzyme activity, inhibitor		20 µM	inhibition	5%
O=C(NCCc1ncc(C(F)(F)F)cc1Cl)c1ccccc1C(F)(F)F	Sclerotinia sclerotiorum	microbial growth		50 µg/mL	inhibition	46.5%
CC(C)[C@@H]1NC(=O)[C@@H](CCCN)NC(=O)[C@H]([C@@H](C)O)NC(=O)[C@@H](CCCN)NC(=O)[C@H](Cc2ccccc2)NC(=O)[C@@H](C)NC(=O)[C@@H](C(C)C)NC(=O)[C@@H](C)NC(=O)[C@H](Cc2c[nH]c3ccccc23)NC(=O)[C@@H](Cc2c[nH]c3ccccc23)NC1=O	Balamuthia mandrillaris	parasite growth, ATP luminescence			IC50	> 16 µg/mL
O=C(NNc1cccc(Cl)c1)c1nnc(C23CC4CC(CC(C4)C2)C3)o1	Fusarium oxysporum	microbial growth		50 µg/mL	inhibition	100%
CC(C)[C@@H]1NC(=O)[C@@H](CCCCN)NC(=O)[C@H]([C@@H](C)O)NC(=O)[C@@H](CCCCN)NC(=O)[C@H](Cc2c[nH]c3ccccc23)NC(=O)[C@@H](C)NC(=O)[C@@H](C(C)C)NC(=O)[C@@H](C)NC(=O)[C@H](Cc2c[nH]c3ccccc23)NC(=O)[C@@H](Cc2c[nH]c3ccccc23)NC1=O	Balamuthia mandrillaris	parasite growth, ATP luminescence			IC50	7.82 µg/mL
Cn1cc2c3c1C(=O)C(N)=CC3=[N+](C)CC2	Babesia divergens	parasite growth, SYBR Green		60 h, blood stage	IC50	365 nM
CC(C)C[C@@H]1NC(=O)CNC(=O)[C@@H](Cc2ccccc2)NC(=O)[C@H](CCCCN)NC(=O)[C@@H](CCCN)NC(=O)[C@@H](C(C)C)NC1=O	Balamuthia mandrillaris	parasite growth, ATP luminescence			IC90	> 16 µg/mL
COC(=O)c1cc(-c2cccc(NC(=O)Nc3cccc(Cl)c3Cl)c2)on1	Mycobacteroides abscessus	microbial growth, broth dilution	ATCC19977	48 h	MIC	> 64 µg/mL
C[C@@H](O)[C@@H]1NC(=O)[C@H](Cc2ccccc2)NC(=O)[C@@H](Cc2ccccc2)NC(=O)[C@H]([C@@H](C)O)NC(=O)[C@@H](CCCCN)NC(=O)[C@H](CC(=O)O)NC1=O	Balamuthia mandrillaris	parasite growth, ATP luminescence			IC90	> 16 µg/mL
C#Cc1ccc(C(=O)NN=Cc2ccc(C#C)cc2O)cc1	Aspergillus fumigatus	microbial growth		48 h, pH 6.5	MIC80	> 16 µg/mL
COC(=O)c1cc(-c2cccc(NC(=O)Nc3ccccc3F)c2)on1	Mycobacteroides abscessus	microbial growth, broth dilution	ATCC19977	48 h	MIC	> 64 µg/mL
C[C@@H]1[C@H](O)[C@@H](C)/C=C/C=C/C=C/C=C/C=C/C=C/C=C/[C@H](O[C@@H]2O[C@H](C)[C@@H](O)[C@H](N)[C@@H]2O)C[C@@H]2O[C@](O)(C[C@@H](O)C[C@@H](O)[C@H](O)CC[C@@H](O)C[C@@H](O)CC(=O)O[C@H]1C)C[C@H](O)[C@H]2C(=O)O	Leishmania donovani	parasite growth, resazurin		72 h, promastigote	IC50	0.16 µg/mL
O=C(NNc1ccc(Cl)c(Cl)c1)c1nnc(C23CC4CC(CC(C4)C2)C3)o1	Fusarium oxysporum	microbial growth			EC50	> 12.5 µg/mL
C#Cc1ccc(C(=O)NN=Cc2cccc(C#C)c2O)cc1	Aspergillus fumigatus	microbial growth		48 h, pH 6.5	MIC80	4 µg/mL (≈ 13.9 µM)
CC(C)[C@@H]1NC(=O)[C@@H](CCCCN)NC(=O)[C@H](CCCN)NC(=O)[C@@H](CCCN)NC(=O)[C@H](C)NC(=O)[C@H](Cc2c[nH]c3ccccc23)NC(=O)[C@@H](Cc2ccccc2)NC1=O	Balamuthia mandrillaris	parasite growth, ATP luminescence			IC50	> 16 µg/mL
C#Cc1ccc(C=NNC(=O)c2ccc(COC(C)C)cc2)c(O)c1	Aspergillus fumigatus	microbial growth		48 h, pH 6.5	MIC80	8 µg/mL (≈ 23.8 µM)
COC(=O)c1cc(-c2cccc(NC(=O)Nc3ccc(Cl)cc3Cl)c2)on1	Acinetobacter baumannii	microbial growth, broth dilution	BAA1605		MIC	> 64 µg/mL
Cc1sc2c(c1C)C(c1ccc(Cl)cc1)=N[C@@H](CC(=O)OC(C)(C)C)c1nnc(C)n1-2	OCI-Ly1	cell growth or viability, ATP luminescence		0.5 µM, 5 days	viability	20.5%
O=C(NNc1cc(F)ccc1F)c1nnc(CC23CC4CC(CC(C4)C2)C3)o1	Sclerotinia sclerotiorum	microbial growth		50 µg/mL	inhibition	100%
CC(C)[C@@H]1NC(=O)[C@@H](CCCCN)NC(=O)[C@H]([C@@H](C)O)NC(=O)[C@H](Cc2ccccc2)NC(=O)[C@@H](Cc2ccccc2)NC(=O)[C@H]([C@@H](C)O)NC(=O)[C@@H](CCCN)NC1=O	Balamuthia mandrillaris	parasite growth, ATP luminescence			IC50	> 16 µg/mL
COC(=O)c1cc(-c2cccc(NC(=O)Nc3cccc(C#N)c3)c2)on1	Acinetobacter baumannii	microbial growth, broth dilution	BAA1605		MIC	> 64 µg/mL
O=C(NNc1ccc(Cl)c(Cl)c1)c1nnc(CC23CC4CC(CC(C4)C2)C3)o1	Sclerotinia sclerotiorum	microbial growth		50 µg/mL	inhibition	100%
COc1ncccc1-c1cnn2ccc(N3CCN(C(=O)OC(C)C)CC3)nc12	Cyclin-dependent kinase 11A (CDK11A, Homo sapiens, UniProt Q9UQ88)	binding, competition with immobilised ligand		1 µM	remaining binding	100%

Excerpt of the above:
SMILES	tested on	test	test system	conditions	measurement	value
CC(C)[C@@H]1NC(=O)[C@@H](CCCCN)NC(=O)[C@H](CCCN)NC(=O)[C@@H](CCCN)NC(=O)[C@H](C)NC(=O)[C@H](Cc2c[nH]c3ccccc23)NC(=O)[C@@H](Cc2ccccc2)NC1=O	Balamuthia mandrillaris	parasite growth, ATP luminescence			IC50	> 16 µg/mL
C#Cc1ccc(C=NNC(=O)c2ccc(COC(C)C)cc2)c(O)c1	Aspergillus fumigatus	microbial growth		48 h, pH 6.5	MIC80	8 µg/mL (≈ 23.8 µM)
COC(=O)c1cc(-c2cccc(NC(=O)Nc3ccc(Cl)cc3Cl)c2)on1	Acinetobacter baumannii	microbial growth, broth dilution	BAA1605		MIC	> 64 µg/mL
Cc1sc2c(c1C)C(c1ccc(Cl)cc1)=N[C@@H](CC(=O)OC(C)(C)C)c1nnc(C)n1-2	OCI-Ly1	cell growth or viability, ATP luminescence		0.5 µM, 5 days	viability	20.5%
O=C(NNc1cc(F)ccc1F)c1nnc(CC23CC4CC(CC(C4)C2)C3)o1	Sclerotinia sclerotiorum	microbial growth		50 µg/mL	inhibition	100%
CC(C)[C@@H]1NC(=O)[C@@H](CCCCN)NC(=O)[C@H]([C@@H](C)O)NC(=O)[C@H](Cc2ccccc2)NC(=O)[C@@H](Cc2ccccc2)NC(=O)[C@H]([C@@H](C)O)NC(=O)[C@@H](CCCN)NC1=O	Balamuthia mandrillaris	parasite growth, ATP luminescence			IC50	> 16 µg/mL
